# Experimental data collected from several papers.
# Protocols differ between the studies behind these lines.
SMILES,organism,test,system,conditions,MIC
C#CCOc1ccc(CN[C@@]2(C)C[C@H](O[C@H]3[C@H](Oc4c5cc6cc4Oc4ccc(cc4Cl)[C@@H](O)[C@@H](NC(=O)[C@@H](CC(C)C)NC)C(=O)N[C@@H](CC(N)=O)C(=O)N[C@H]6C(=O)N[C@H]4C(=O)N[C@H](C(=O)N[C@H](C(=O)N[C@@H](CCCNC(=N)N)C(N)=O)c6cc(O)cc(O)c6-c6cc4ccc6O)[C@H](O)c4ccc(c(Cl)c4)O5)O[C@H](CO)[C@@H](O)[C@@H]3O)O[C@@H](C)[C@H]2O)cc1OC,Staphylococcus simulans,broth microdilution,"22, cation-adjusted Mueller-Hinton broth","20 to 24 h, 37 °C, 0.002% polysorbate 80",0.125 µg/mL
CC[C@H](C)[C@H](NC(=O)[C@H](CCC(N)=O)NC(=O)[C@H](Cc1ccccc1)NC(=O)[C@H](CC(N)=O)NC(=O)[C@H](CCCCN)NC(=O)[C@H](CC(C)C)NC(=O)[C@H](CCCNC(=N)N)NC(=O)[C@H](CCCCN)NC(=O)[C@H](CCCCN)NC(=O)[C@@H](NC(=O)[C@H](CO)NC(=O)[C@H](CCCCN)NC(=O)CNC(=O)[C@H](CC(C)C)NC(=O)[C@H](CCCCN)NC(=O)[C@H](CCCCN)NC(=O)[C@H](CC(C)C)NC(=O)[C@H](CCCCN)NC(=O)[C@H](CCCCN)NC(=O)[C@H](CCCNC(=N)N)NC(=O)[C@H](CC(C)C)NC(=O)CNC(=O)[C@@H](N)CCCNC(=N)N)[C@@H](C)CC)C(=O)NCC(=O)N[C@@H](Cc1ccccc1)C(=O)N[C@@H](CO)C(=O)N[C@H](C(=O)N1CCC[C@H]1C(=O)N[C@@H](Cc1ccccc1)C(=O)N[C@@H](C)C(=O)NCC(=O)O)C(C)C,Micrococcus luteus,broth microdilution,ATCC 4698,,1.12 µM
COc1cc(C(=O)Nc2ccc(C(=O)O)c(O)c2)ccc1NC(=O)c1ccc(NC(=O)[C@H](Cc2c[nH]nn2)NC(=O)c2ccc(NC(=O)/C(C)=C/c3ccc(O)cc3)cc2)cc1,Micrococcus luteus,broth microdilution,DSM 1790,,4 µg/mL
CC1C=CC=CC(C)C2C=CC3CC(C)(O)C(Cl)C(C)C3C2C(=O)C(Cl)(Cl)C(=O)C(C)C(=O)O1 (centres unmarked),Staphylococcus aureus,,MSSA clinical isolate,PEN CLI ERY TET resistant,0.025 µg/mL
N=C(N)NCCC[C@@H]1NC(=O)[C@@H](CCCNC(=N)N)NC(=O)[C@H](CCCNC(=N)N)NC(=O)[C@@H](C(c2ccccc2)c2ccccc2)NC(=O)[C@@H](C(c2ccccc2)c2ccccc2)NC(=O)[C@@H](C(c2ccccc2)c2ccccc2)NC(=O)[C@@H](CCCNC(=N)N)NC1=O,Paecilomyces variotii,,MYA-3630,,8 µg/mL
CC[C@H](C)[C@@H]1NC(=O)[C@@H]([C@@H](C)O)NC(=O)CNC(=O)[C@H](CC(=O)O)NC(=O)CNC(=O)[C@H](CC(=O)O)NC(=O)CNC(=O)[C@H]2CCCCN2C(=O)[C@@H](NC(=O)[C@H](CC(=O)O)NC(=O)/C=C/CCCCCCCCCC(C)C)CNC(=O)[C@@H]2CCCN2C1=O,Staphylococcus simulans,broth microdilution,"22, Mueller-Hinton broth, Mg2+ 10 mg/L","16 h, 30 °C, with: Ca2+ 0 mM",> 128 µg/mL
Cc1c(CN(C)C(=O)/C=C/c2cnc3c(c2)CC(N)C(=O)N3)oc2ccccc12 (centres unmarked),Escherichia coli,broth microdilution,AR-0162,,8 µg/mL
CCOc1c(NC(=O)c2ccc(NC(=O)[C@H](Cc3c[nH]nn3)NC(=O)c3ccc(NC(=O)/C(C)=C/c4ccc(O)cc4)cc3)cc2)ccc(C(=O)Nc2ccc(C(=O)O)c(O)c2OC)c1O,Micrococcus luteus,broth microdilution,DSM 1790,,0.125 µg/mL
N=C(N)NCCC[C@@H]1NC(=O)[C@H](CCCNC(=N)N)NC(=O)[C@@H](C(c2ccccc2)c2ccccc2)NC(=O)[C@H](Cc2c[nH]c3ccccc23)NC(=O)[C@@H](C(c2ccccc2)c2ccccc2)NC(=O)[C@@H](CCCNC(=N)N)NC(=O)[C@@H](CCCNC(=N)N)NC1=O,Paecilomyces variotii,,MYA-3630,,8 µg/mL
CN[C@H](CC(C)C)C(=O)N[C@H]1C(=O)N[C@@H](CC(N)=O)C(=O)N[C@H]2C(=O)N[C@H]3C(=O)N[C@H](C(=O)N[C@H](C(=O)O)c4cc(O)cc(O)c4-c4cc3ccc4O)[C@H](O)c3ccc(c(Cl)c3)Oc3cc2cc(c3O[C@@H]2O[C@H](CO)[C@@H](O)[C@H](O)[C@H]2O[C@H]2C[C@](C)(N)[C@H](O)[C@H](C)O2)Oc2ccc(cc2Cl)[C@H]1O,Bacillus,broth microdilution,DSM 25372,"24 h, aerobic, 30 °C",0.13 µg/mL
CN[C@H](CC(C)C)C(=O)N[C@H]1C(=O)N[C@@H](CC(N)=O)C(=O)N[C@H]2C(=O)N[C@H]3C(=O)N[C@H](C(=O)N[C@H](C(=O)O)c4cc(O)cc(O)c4-c4cc3ccc4O)[C@H](O)c3ccc(c(Cl)c3)Oc3cc2cc(c3O[C@@H]2O[C@H](CO)[C@@H](O)[C@H](O)[C@H]2O[C@H]2C[C@](C)(NCc3ccc(OCc4cn(CC(=O)N[C@H](C(=O)N[C@@H](CCN)C(=O)N[C@H]5CCNC(=O)[C@H]([C@@H](C)O)NC(=O)[C@H](CCN)NC(=O)[C@H](CCN)NC(=O)[C@H](CC(C)C)NC(=O)[C@@H](CC(C)C)NC(=O)[C@H](CCN)NC5=O)[C@@H](C)O)nn4)c(OC)c3)[C@H](O)[C@H](C)O2)Oc2ccc(cc2Cl)[C@H]1O,Staphylococcus simulans,broth microdilution,"22, cation-adjusted Mueller-Hinton broth","20 to 24 h, 37 °C, 0.002% polysorbate 80",0.031 µg/mL
CC[C@H](C)[C@H](NC(=O)[C@H](CC(C)C)NC(=O)[C@H](CO)NC(=O)[C@H](Cc1ccc(O)cc1)NC(=O)CNC(=O)CNC(=O)[C@@H](NC(=O)[C@H](CCCCN)NC(=O)[C@H](Cc1ccc(O)cc1)NC(=O)[C@H](CO)NC(=O)[C@H](CC(N)=O)NC(=O)[C@H](CCCCN)NC(=O)[C@H](CCCCN)NC(=O)[C@H](CO)NC(=O)CNC(=O)[C@H](CCCCN)NC(=O)[C@H](CCCCN)NC(=O)[C@H](CCCNC(=N)N)NC(=O)[C@H](CCCNC(=N)N)NC(=O)[C@@H]1CCCN1)[C@@H](C)O)C(=O)N[C@@H](CO)C(=O)N[C@@H](CC(C)C)C(=O)NCC(=O)N[C@@H](CCCCN)C(=O)N1CCC[C@H]1C(=O)N[C@@H](CC(N)=O)C(=O)N[C@H](C(=O)N[C@@H](Cc1c[nH]cn1)C(=O)N[C@@H](CCCCN)C(=O)N[C@@H](C)C(=O)N1CCC[C@H]1C(=O)N[C@@H](Cc1ccc(O)cc1)C(=O)N[C@@H](CCSC)C(=O)N[C@@H](CCC(=O)O)C(=O)N[C@@H](CO)C(=O)N[C@@H](CC(C)C)C(=O)O)C(C)C,Micrococcus luteus,broth microdilution,ATCC 4698,"43 h, 37 °C, cation-adjusted Mueller-Hinton broth",64 µg/mL
COC1=CC(c2ccc[nH]2)=NC1=CNC(C)(C)C.Cl,Candidozyma auris,broth microdilution,CDC AR Bank #0381,24 h,64 µg/mL
CC(C)C[C@@H]1NC(=O)[C@@H](CC(C)C)NC(=O)[C@H](CCN)NC(=O)[C@@H](NC(=O)[C@H](CCN)NC(=O)[C@@H](N)[C@@H](C)O)CCNC(=O)[C@H]([C@@H](C)O)NC(=O)[C@H](CCN)NC(=O)[C@H](CCN)NC1=O,Staphylococcus simulans,broth microdilution,"22, cation-adjusted Mueller-Hinton broth","20 to 24 h, 37 °C, 0.002% polysorbate 80",> 128 µg/mL
COc1c(NC(=O)c2ccc(NC(=O)c3ccc(NC(=O)[C@H](CC#N)NC(=O)c4ccc(NC(=O)/C(C)=C/c5ccc(O)cc5)cc4)cc3)c(OC)c2O)ccc(C(=O)O)c1O,Micrococcus luteus,"microbial growth, broth dilution",DSM1790,,1 µg/mL
COC1C=COC2(C)Oc3c(C)c(O)c4c(c3C2=O)C2=NC3(CCN(CC(C)C)CC3)NC2=C(NC(=O)C(C)=CC=CC(C)C(O)C(C)C(O)C(C)C(OC(=O)Nc2cnccn2)C1C)C4=O (centres unmarked),Mycobacteroides abscessus,broth microdilution,ATCC 19977,,0.028 µM
CCOc1c(NC(=O)c2ccc(NC(=O)c3ccc(NC(=O)[C@H](Cc4c[nH]nn4)NC(=O)c4ccc(NC(=O)/C(C)=C/c5ccc(O)cc5)cc4)cc3)c(OCC)c2O)ccc(C(=O)O)c1O,Micrococcus luteus,broth microdilution,DSM 1790,,0.5 µg/mL
C=C(NC(=O)c1csc(-c2nc3c(cc2O)-c2nc(cs2)C(=O)NC(C(C)O)C(=O)NC(=C(C)OC)c2nc(cs2)C(=O)NC2c4nc(cs4)C(=O)NC(COC(=O)c4c5c6c(cccc6n4O)COC(=O)C(OC4CC(C)(O)C(N(C)C)C(C)O4)C2OC5)c2nc-3cs2)n1)C(N)=O (centres unmarked),Streptococcus pneumoniae,,-25,used for PK-PD modelling,0.0078 µg/mL
CN[C@H](CC(C)C)C(=O)N[C@H]1C(=O)N[C@@H](CC(N)=O)C(=O)N[C@H]2C(=O)N[C@H]3C(=O)N[C@H](C(=O)N[C@H](C(=O)NCc4cn(CC(=O)N[C@H](C(=O)N[C@@H](CCN)C(=O)N[C@H]5CCNC(=O)[C@H]([C@@H](C)O)NC(=O)[C@H](CCN)NC(=O)[C@H](CCN)NC(=O)[C@H](CC(C)C)NC(=O)[C@@H](CC(C)C)NC(=O)[C@H](CCN)NC5=O)[C@@H](C)O)nn4)c4cc(O)cc(O)c4-c4cc3ccc4O)[C@H](O)c3ccc(c(Cl)c3)Oc3cc2cc(c3O[C@@H]2O[C@H](CO)[C@@H](O)[C@H](O)[C@H]2O[C@H]2C[C@](C)(N)[C@H](O)[C@H](C)O2)Oc2ccc(cc2Cl)[C@H]1O,Staphylococcus simulans,broth microdilution,"22, cation-adjusted Mueller-Hinton broth","20 to 24 h, 37 °C, 0.002% polysorbate 80",≤ 0.008 µg/mL
COc1cc(C(=O)O)ccc1NC(=O)c1ccc(NC(=O)c2ccc(NC(=O)[C@H](Cc3c[nH]nn3)NC(=O)c3ccc(NC(=O)/C(C)=C/c4ccc(O)cc4)cc3)cc2)c(OC)c1O,Micrococcus luteus,broth microdilution,DSM 1790,,1 µg/mL
